{"data": "Published values collected from several papers", "cell line": "BXPC-3", "effect on": "cell growth or viability", "note": "Lines come from different studies, so protocols differ."}
{"Compound": "CCCC(CCC)C(=O)[O][Pt]([Cl])([Cl])[O]C(C)=O.N.N", "quantity": "IC50", "result": "3540 nM"}
{"Compound": "CC(=O)Oc1ccc(/C=C/C(=O)Nc2nc(=O)n([C@@H]3O[C@H](C)[C@@H](OC(C)=O)[C@H]3OC(C)=O)cc2F)cc1", "test": "MTT", "setting": "72 h", "quantity": "IC50", "result": "14000 nM"}
{"Compound": "N.N.O=C(CCCc1ccccc1)[O][Pt]([Cl])([Cl])[O]C(=O)CCCc1ccccc1", "quantity": "IC50", "result": "190 nM"}
{"Compound": "CCCCCCCCCCCCCCOC(=O)Nc1ccn([C@@H]2O[C@H](CO)[C@@H](O)C2(F)F)c(=O)n1", "test": "MTT", "setting": "48 h", "quantity": "IC50", "result": "530 nM"}
{"Compound": "Cc1nn(-c2ccc(S(=O)(=O)N[C@H](CO)CC(C)C)cc2)c2nn3nnnc3nc12", "test": "MTT", "setting": "72 h", "quantity": "IC50", "result": "210 nM"}
{"Compound": "CCCC(CCC)C(=O)[O][Pt]1([OH])[O]C(=O)C(=O)[O]1.NC1CCCCC1N", "quantity": "IC50", "result": "19800 nM"}
{"Compound": "COC(=O)[C@@H](Cc1cn(Cc2ccc(C)cc2)nn1)NC(=O)OCC1c2ccccc2-c2ccccc21", "test": "MTS", "setting": "72 h", "quantity": "IC50", "result": "2740 nM"}
{"Compound": "CC(=O)Oc1ccc(/C=C/C(=O)Nc2nc(=O)n([C@@H]3O[C@H](C)[C@@H](OC(C)=O)[C@H]3OC(C)=O)cc2F)c(OC(C)=O)c1", "test": "MTT", "setting": "72 h", "quantity": "IC50", "result": "45100 nM"}
{"Compound": "COC(=O)[C@@H](Cc1cn(Cc2ccccc2)nn1)NC(=O)OCC1c2ccccc2-c2ccccc21", "test": "MTS", "setting": "72 h", "quantity": "IC50", "result": "1480 nM"}
{"Compound": "CC(=O)Oc1cccc(/C=C/C(=O)Nc2nc(=O)n([C@@H]3O[C@H](C)[C@@H](OC(C)=O)[C@H]3OC(C)=O)cc2F)c1", "test": "MTT", "setting": "72 h", "quantity": "IC50", "result": "20200 nM"}
{"Compound": "CCCCCCCCCCCCCCCCCC(=O)Nc1ccn(C2OC(CO)C(O)C2(F)F)c(=O)n1 (stereo not drawn)", "test": "crystal violet", "setting": "72 h", "quantity": "EC50", "result": "40 nM"}
{"Compound": "COc1ccc2c(c1)C(=C1Nc3ccccc3C1=NOCC(O)CO)C(=O)N2 (stereo not drawn)", "test": "MTS", "setting": "48 h", "quantity": "IC50", "result": "2200 nM"}
{"note": "Repeated from above:"}
{"Compound": "CCCCCCCCCCCCCCCCCC(=O)Nc1ccn(C2OC(CO)C(O)C2(F)F)c(=O)n1 (stereo not drawn)", "test": "crystal violet", "setting": "72 h", "quantity": "EC50", "result": "40 nM"}
{"Compound": "COc1ccc2c(c1)C(=C1Nc3ccccc3C1=NOCC(O)CO)C(=O)N2 (stereo not drawn)", "test": "MTS", "setting": "48 h", "quantity": "IC50", "result": "2200 nM"}
